Assay results of several laboratories.
Numbers after ± are the reported error.
CES1: Liver carboxylesterase 1 (CES1, Homo sapiens, UniProt P23141)
Chain of UniProt P23141 (whole entry, looked up): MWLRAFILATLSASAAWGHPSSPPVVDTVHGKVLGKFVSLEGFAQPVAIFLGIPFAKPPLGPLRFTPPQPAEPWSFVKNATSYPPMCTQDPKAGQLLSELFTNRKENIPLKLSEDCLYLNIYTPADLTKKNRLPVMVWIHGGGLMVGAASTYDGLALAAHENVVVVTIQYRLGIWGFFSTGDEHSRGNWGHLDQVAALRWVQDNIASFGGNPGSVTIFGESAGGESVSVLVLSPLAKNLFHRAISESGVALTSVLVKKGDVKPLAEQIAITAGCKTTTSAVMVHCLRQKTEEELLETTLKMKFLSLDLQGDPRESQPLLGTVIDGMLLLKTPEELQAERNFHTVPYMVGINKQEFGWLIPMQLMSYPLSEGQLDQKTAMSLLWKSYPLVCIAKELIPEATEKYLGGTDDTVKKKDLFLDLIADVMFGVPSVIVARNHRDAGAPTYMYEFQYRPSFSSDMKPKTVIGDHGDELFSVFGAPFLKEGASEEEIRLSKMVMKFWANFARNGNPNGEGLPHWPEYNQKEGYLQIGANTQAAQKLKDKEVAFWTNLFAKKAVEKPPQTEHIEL
blaNDM-1: Metallo-beta-lactamase type 2 (blaNDM-1, Klebsiella pneumoniae, UniProt C7C422)
Chain of UniProt C7C422 (whole entry, looked up): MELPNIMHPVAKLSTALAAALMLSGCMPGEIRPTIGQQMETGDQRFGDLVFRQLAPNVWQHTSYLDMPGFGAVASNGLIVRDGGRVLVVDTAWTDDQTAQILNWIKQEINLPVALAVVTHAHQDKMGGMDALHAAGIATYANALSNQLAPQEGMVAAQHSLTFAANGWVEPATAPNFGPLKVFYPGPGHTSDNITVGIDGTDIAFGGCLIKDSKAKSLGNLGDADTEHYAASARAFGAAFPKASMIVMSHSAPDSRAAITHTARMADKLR
Uncharacterized hydrolase SAUSA300_2518: Uncharacterized hydrolase SAUSA300_2518 (Staphylococcus aureus, UniProt Q2FDS6)
Chain of UniProt Q2FDS6 (whole entry, looked up): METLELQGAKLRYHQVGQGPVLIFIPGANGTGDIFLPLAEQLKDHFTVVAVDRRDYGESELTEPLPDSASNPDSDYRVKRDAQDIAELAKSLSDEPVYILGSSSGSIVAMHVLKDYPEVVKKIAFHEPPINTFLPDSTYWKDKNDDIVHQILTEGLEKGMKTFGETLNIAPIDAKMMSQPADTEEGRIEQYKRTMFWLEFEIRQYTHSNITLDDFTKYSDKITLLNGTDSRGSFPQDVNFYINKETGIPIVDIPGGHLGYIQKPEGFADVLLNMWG
SIRT5: NAD-dependent protein deacylase sirtuin-5, mitochondrial (SIRT5, Homo sapiens, UniProt Q9NXA8)
Chain of UniProt Q9NXA8 (whole entry, looked up): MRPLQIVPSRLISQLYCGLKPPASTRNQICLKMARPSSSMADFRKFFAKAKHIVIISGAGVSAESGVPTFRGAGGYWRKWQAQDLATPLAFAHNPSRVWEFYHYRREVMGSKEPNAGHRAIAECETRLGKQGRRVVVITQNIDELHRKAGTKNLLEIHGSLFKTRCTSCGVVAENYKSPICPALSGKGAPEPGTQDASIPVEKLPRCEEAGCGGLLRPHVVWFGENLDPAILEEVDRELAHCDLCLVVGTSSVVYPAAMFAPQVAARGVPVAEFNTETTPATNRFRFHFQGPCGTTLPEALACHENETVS
lasR: Transcriptional activator protein LasR (lasR, Pseudomonas aeruginosa, UniProt P25084)
Chain of UniProt P25084 (whole entry, looked up): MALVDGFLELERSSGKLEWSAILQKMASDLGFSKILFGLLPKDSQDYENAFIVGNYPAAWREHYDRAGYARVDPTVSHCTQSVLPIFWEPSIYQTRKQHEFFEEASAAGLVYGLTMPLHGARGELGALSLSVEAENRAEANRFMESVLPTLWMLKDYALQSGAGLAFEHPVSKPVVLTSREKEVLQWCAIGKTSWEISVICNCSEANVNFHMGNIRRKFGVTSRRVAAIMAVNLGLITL
SIRT2: NAD-dependent protein deacetylase sirtuin-2 (SIRT2, Homo sapiens, UniProt Q8IXJ6)
Chain of UniProt Q8IXJ6 (whole entry, looked up): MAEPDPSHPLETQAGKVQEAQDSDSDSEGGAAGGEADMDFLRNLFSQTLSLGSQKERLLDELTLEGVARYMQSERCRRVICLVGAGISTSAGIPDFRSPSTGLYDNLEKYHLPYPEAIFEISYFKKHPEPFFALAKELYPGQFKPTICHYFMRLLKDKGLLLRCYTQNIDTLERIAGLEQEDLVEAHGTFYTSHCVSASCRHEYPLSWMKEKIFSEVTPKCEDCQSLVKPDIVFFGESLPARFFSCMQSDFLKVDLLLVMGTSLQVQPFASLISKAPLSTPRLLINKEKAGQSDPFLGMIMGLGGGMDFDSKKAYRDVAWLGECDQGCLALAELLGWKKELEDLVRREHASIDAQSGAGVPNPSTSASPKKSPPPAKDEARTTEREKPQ
Formate-nitrite transporter: Formate-nitrite transporter (Plasmodium falciparum, UniProt O77389)
Chain of UniProt O77389 (whole entry, looked up): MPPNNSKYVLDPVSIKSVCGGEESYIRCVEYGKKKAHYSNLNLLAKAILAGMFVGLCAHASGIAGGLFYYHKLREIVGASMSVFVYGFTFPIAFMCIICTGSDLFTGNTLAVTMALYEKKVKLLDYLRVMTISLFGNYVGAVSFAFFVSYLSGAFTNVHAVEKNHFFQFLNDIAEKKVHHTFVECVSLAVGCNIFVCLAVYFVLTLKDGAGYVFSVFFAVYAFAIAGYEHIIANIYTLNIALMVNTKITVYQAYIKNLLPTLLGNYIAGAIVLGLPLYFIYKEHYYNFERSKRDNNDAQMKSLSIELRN
CXCR4: C-X-C chemokine receptor type 4 (CXCR4, Homo sapiens, UniProt P61073)
Chain of UniProt P61073 (whole entry, looked up): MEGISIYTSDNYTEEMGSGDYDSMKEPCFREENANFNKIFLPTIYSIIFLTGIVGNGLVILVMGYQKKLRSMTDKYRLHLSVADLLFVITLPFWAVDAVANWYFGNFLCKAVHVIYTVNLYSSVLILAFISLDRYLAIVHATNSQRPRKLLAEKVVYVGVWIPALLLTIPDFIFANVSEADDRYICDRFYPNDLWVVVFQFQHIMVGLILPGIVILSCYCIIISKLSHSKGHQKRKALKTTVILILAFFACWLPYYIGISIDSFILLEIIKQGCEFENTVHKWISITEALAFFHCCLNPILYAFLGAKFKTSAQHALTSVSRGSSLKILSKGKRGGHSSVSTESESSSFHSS
Chain of UniProt O89049 (whole entry, looked up): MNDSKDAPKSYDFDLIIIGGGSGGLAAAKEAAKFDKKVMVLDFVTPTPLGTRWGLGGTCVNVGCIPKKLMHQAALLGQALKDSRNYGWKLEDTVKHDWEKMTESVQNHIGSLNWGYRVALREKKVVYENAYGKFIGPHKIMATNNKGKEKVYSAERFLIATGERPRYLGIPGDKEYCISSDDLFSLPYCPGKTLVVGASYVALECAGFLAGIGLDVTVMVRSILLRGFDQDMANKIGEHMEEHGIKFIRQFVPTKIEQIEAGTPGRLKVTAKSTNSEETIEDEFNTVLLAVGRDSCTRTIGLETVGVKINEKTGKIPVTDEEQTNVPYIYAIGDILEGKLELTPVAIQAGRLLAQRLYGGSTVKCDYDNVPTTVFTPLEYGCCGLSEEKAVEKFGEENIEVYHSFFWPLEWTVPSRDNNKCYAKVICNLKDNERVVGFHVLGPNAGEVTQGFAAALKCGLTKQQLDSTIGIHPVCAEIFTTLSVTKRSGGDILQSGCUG
Chain of UniProt O55040 (whole entry, looked up): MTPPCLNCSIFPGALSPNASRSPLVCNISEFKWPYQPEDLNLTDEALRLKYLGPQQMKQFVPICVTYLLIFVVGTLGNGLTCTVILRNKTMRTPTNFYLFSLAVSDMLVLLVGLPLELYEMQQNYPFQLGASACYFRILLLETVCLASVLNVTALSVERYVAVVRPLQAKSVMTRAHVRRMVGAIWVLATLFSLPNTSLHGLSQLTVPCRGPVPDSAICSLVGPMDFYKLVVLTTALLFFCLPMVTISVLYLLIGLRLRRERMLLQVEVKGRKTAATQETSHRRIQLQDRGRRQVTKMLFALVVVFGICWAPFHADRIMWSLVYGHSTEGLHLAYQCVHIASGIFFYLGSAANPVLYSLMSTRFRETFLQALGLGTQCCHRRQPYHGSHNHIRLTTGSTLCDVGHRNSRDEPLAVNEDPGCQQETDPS
Chain of UniProt P0A6M2 (whole entry, unmodified, looked up): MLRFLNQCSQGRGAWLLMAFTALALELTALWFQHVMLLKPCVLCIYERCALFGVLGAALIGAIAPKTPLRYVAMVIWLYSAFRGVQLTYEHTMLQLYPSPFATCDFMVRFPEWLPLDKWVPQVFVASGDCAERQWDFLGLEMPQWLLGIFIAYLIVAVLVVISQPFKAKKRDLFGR
Chain of UniProt Q03431 (whole entry, looked up): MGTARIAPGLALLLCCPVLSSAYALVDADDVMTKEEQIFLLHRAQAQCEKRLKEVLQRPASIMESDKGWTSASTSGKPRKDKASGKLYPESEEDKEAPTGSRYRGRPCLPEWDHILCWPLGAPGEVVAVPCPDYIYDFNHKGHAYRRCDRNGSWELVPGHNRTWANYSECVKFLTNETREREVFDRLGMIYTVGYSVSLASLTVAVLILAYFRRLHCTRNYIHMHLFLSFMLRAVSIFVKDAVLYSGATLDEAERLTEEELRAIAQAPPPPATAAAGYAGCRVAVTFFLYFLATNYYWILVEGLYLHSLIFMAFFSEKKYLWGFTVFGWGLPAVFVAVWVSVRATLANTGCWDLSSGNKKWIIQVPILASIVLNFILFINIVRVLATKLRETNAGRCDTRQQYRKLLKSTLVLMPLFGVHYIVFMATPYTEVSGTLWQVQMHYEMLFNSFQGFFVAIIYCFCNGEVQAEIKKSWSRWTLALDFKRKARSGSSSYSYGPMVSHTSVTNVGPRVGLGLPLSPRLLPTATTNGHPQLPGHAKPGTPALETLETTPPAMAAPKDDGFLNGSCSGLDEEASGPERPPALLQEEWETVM
Chain of UniProt Q99436 (whole entry, looked up): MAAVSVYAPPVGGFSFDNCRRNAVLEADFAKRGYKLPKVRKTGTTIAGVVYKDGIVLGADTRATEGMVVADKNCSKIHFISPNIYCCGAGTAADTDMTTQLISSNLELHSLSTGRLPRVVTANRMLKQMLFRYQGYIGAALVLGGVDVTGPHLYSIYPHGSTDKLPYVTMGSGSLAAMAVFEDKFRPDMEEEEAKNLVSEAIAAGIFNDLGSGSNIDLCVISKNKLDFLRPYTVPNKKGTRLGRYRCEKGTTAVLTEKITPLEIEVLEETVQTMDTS

For CC[C@H](C)[C@H](NC(=O)[C@H](CCC(=O)O)NC(=O)[C@H](C)NC(=O)[C@@H](NC(=O)[C@H](Cc1c[nH]cn1)NC(=O)[C@@H](NC(=O)[C@H](CCC(=O)O)NC(=O)[C@H](C)NC(=O)[C@H]1CCC[C@@H]1NC(=O)[C@H](CC(C)C)NC(=O)[C@H](Cc1c[nH]cn1)NC(=O)[C@H](Cc1c[nH]cn1)NC(=O)[C@H](CC(C)C)NC(=O)[C@H](Cc1ccccc1)NC(=O)[C@H](Cc1ccccc1)NC(=O)[C@H](CCCNC(=N)N)NC(=O)[C@H](CCCNC(=N)N)NC(=O)[C@H](CCCNC(=N)N)NC(=O)[C@H](CC(C)C)NC(=O)[C@H](CC(=O)O)NC(=O)[C@H](CCC(N)=O)NC(=O)[C@@H](NC(=O)[C@H](CO)NC(=O)[C@H](CCCCN)NC(=O)CNC(=O)[C@H](CCCCN)NC(=O)[C@H](CC(=O)O)NC(=O)[C@H](Cc1c[nH]cn1)NC(=O)[C@H](CC(C)C)NC(=O)[C@H](CC(C)C)NC(=O)[C@H](CCC(N)=O)NC(=O)[C@H](Cc1c[nH]cn1)NC(=O)[C@H](CCC(=O)O)NC(=O)[C@H](CO)NC(=O)[C@@H](NC(=O)[C@H](C)N)C(C)C)[C@@H](C)CC)[C@@H](C)CC)[C@@H](C)O)C(N)=O, the IC50 was 15.1 nM (PTH1R (Homo sapiens, UniProt Q03431); ligand displacement, radioligand; cell membranes).
O=[N+]([O-])c1ccc(OP(=O)(O)Oc2ccc([N+](=O)[O-])cc2)cc1 gave an IC50 of 230 nM (CES1; enzyme activity, inhibitor).
For CC(C)[C@@H]1NC(=O)[C@@H]2CCCN2C(=O)[C@@H](CS)NC(=O)[C@H](CCCCN)NC(=O)[C@H](CCCCN)NC(=O)[C@H](CC(=O)O)NC(=O)[C@H]2CCCN2C(=O)[C@@H]2CCCN2C1=O, the IC50 was 25300 nM (blaNDM-1; enzyme activity, inhibitor, absorbance).
CCSc1cnn(-c2ccccc2)c(=O)c1Cl gave an IC50 of 9120 to 16000 nM (Disulfide bond formation protein B (Escherichia coli, UniProt P0A6M2, C49V/C8A); enzyme activity, inhibitor).
For CCCCCCCCn1nc(OC)oc1=O, the IC50 was 32700 nM (Uncharacterized hydrolase SAUSA300_2518; enzyme activity, inhibitor; USA300; 1 h preincubation, enzyme 0.5 nM, with: 20 µM 4-MU octanoate).
With O=C1C(Nc2ncccc2[N+](=O)[O-])CN1c1ccc(F)cc1 (stereo not drawn) the IC50 was > 50000 nM (Uncharacterized hydrolase SAUSA300_2518; enzyme activity, inhibitor).
With CC(C)C[C@@H]1NC(=O)[C@@H]2CCCN2C(=O)[C@@H](CS)NC(=O)[C@H](Cc2ccc(O)cc2)NC(=O)[C@@H](CCCNC(=N)N)NC(=O)[C@@H](CCCNC(=N)N)NC(=O)[C@H](CCC(=O)O)NC(=O)[C@@H]2CCCN2C1=O the IC50 was 6050 nM (blaNDM-1; enzyme activity, inhibitor, absorbance).
C#CCNC(=O)c1ccc(S(=O)(=O)N[C@@H](CCCCNC(=O)c2cc(OS(=O)(=O)F)c3ccccc3c2O)C(=O)N[C@@H](Cc2c[nH]c3ccccc23)C(=O)NC2CCC2)cc1 gave an IC50 of 6120 ± 80 nM (SIRT5; inhibitor, fluorogenic; 4 h preincubation, His-tagged enzyme 150 nM, with: NAD+ 500 µM).
O=C(CCCCCCCCCN=C=S)CC(=O)N[C@H]1CCOC1=O: IC50 “no inhibition” (lasR; reporter gene, antagonist; Escherichia coli, JLD271 with LasR plasmid; with: OdDHL 2 nM).
The IC50 of Cc1ccc2c(n1)c(-c1cccc(S(C)(=O)=O)c1)c(C)n2C/C(F)=C/CN is reported as 2300 nM (Cytochrome P450 2C8 (CYP2C8, Homo sapiens, UniProt P10632); enzyme activity, inhibitor; human, liver microsomes).
The IC50 of C#CCNC(=O)c1ccc(S(=O)(=O)N[C@@H](CCCCNC(C)=S)C(=O)N[C@@H](CC2CCCCC2)C(=O)N[C@@H](CCCNC(=N)N)C(=O)N[C@@H](CC2CCCCC2)C(=O)N[C@H](CCCCN)C(N)=O)cc1 is reported as 1620 nM (SIRT2; enzyme activity, inhibitor, fluorescence).
For CC(C)C[C@H](NC(=O)[C@H](Cc1ccc(CN)cc1)NC(=O)[C@H](Cc1ccccc1)N=[N+]=[N-])C(=O)N[C@@H](CC1CCC(C2CCCCC2)CC1)C(=O)[C@@]1(C)CO1 (stereo partly drawn), the IC50 was 2330 nM (PSMB7 (Homo sapiens, UniProt Q99436); inhibitor, competitive ABPP; Raji cell lysate; constitutive proteasome β2c).
The IC50 of CSCC[C@@H]1NC(=O)[C@@H](CCCNC(=N)N)NC(=O)[C@H](CC(=O)O)NC(=O)[C@H]2CCCN2C(=O)[C@@H]([C@H](C)O)NC(=O)[C@H](C(C)C)NC(=O)[C@@H]2CCCN2C(=O)[C@@H](CS)NC1=O is reported as 25600 nM (blaNDM-1; enzyme activity, inhibitor, absorbance).
With O=C(CCc1ccc(Br)cc1)N[C@H]1CCOC1=O the IC50 was 270 nM (lasR; reporter gene, antagonist; Escherichia coli lasI-lacZ reporter; with: 5 nM OdDHL).
CNc1ccc(C(=O)C=C(O)C(F)(F)C(F)(F)F)cn1 gave an IC50 of 31 ± 5 nM (Formate-nitrite transporter; L-lactate transport, inhibitor, fluorescence; yeast; pH 6.8, with: L-lactate 1 mM).
CC[C@H](C)[C@H](N)C(=O)N[C@@H](CCCNC(=N)N)C(=O)N[C@@H](CCC(N)=O)C(=O)N[C@@H](CCC(=O)O)C(=O)N[C@@H](CCC(=O)O)C(=O)N[C@H](C(=O)N[C@@H](CCC(N)=O)C(=O)N[C@@H](CCC(=O)O)C(=O)N[C@@H](CC(C)C)C(=O)O)C(C)C gave an IC50 of > 70000 nM (HLA class I histocompatibility antigen, A alpha chain, allele A*02:01 (Homo sapiens, UniProt P04439); peptide-MHC binding, radioligand competition binding).
For CCC(=O)Nc1ccc(C(=O)C=C(O)C(F)(F)C(F)(F)F)cn1, the IC50 was 401 ± 60 nM (Formate-nitrite transporter; L-lactate transport, inhibitor, fluorescence; yeast; pH 6.8, with: L-lactate 1 mM).
For CCN(C)C(=O)Oc1ccccc1/C=C1\Cc2cc(OC)c(OC)cc2C1=O, the IC50 was > 10000 nM (CES1; enzyme activity, inhibitor).
CCCCCCCCCCCCn1nnc(CC(=O)O)n1 — result for IC50: “no inhibition” (lasR; reporter gene, antagonist; Escherichia coli, JLD271 with LasR plasmid; with: OdDHL 2 nM).
CCc1nnc(-c2c(OC)cc(-c3cnc4cc(-c5cnn(C)c5)ccn34)cc2OC)o1 has an IC50 of > 10000 nM (Cytochrome P450 2C9 (CYP2C9, Homo sapiens, UniProt P11712); enzyme activity, inhibitor).
For O=P(O)(O)C(Nc1ccc(Cl)cc1)P(=O)(O)O, the IC50 was 337000 nM (polyphosphate kinase 2 (Cytophaga hutchinsonii, UniProt A0A6N4SMB5); enzyme activity, inhibitor, HPLC; 30 min, 37 °C, with: 0.04 mM ADP and 0.3 mM polyP).
C#CCNC(=O)c1ccc([P+](CCCC(=O)N[C@@H](CCCCNC(=O)c2cncc(OS(=O)(=O)F)c2)C(=O)N[C@@H](CCCNC(=N)N)C(=O)NC2CCC2)(c2ccccc2)c2ccccc2)cc1 gave an IC50 of 4900 ± 300 nM (SIRT5; inhibitor, fluorogenic; pre-incubation 24 h, with: NAD+ 500 µM).
CCN(N=Cc1cnc2ccc(Br)cn12)S(=O)(=O)c1cc([N+](=O)[O-])ccc1C gave an IC50 of 590 nM (PIK3CA (Homo sapiens, UniProt P42336, K776A); enzyme activity, inhibitor).
CSCC[C@H](NC(=O)[C@@H](N)CCCNC(=N)N)C(=O)N[C@@H](CO)C(=O)N[C@@H](C)C(=O)N1CCC[C@H]1C(=O)N[C@@H](CO)C(=O)N[C@H](C(=O)NCC(=O)NCC(=O)N[C@H](C(=O)O)C(C)C)[C@@H](C)O gave an IC50 of 18600 nM (HLA class I histocompatibility antigen, A alpha chain, allele A*02:17 (Homo sapiens, UniProt P04439); binding).
CC1(C)[C@@H]2Cc3nc4c(cc3[C@H]1C2)/C(=C1/c2cc3c(nc2-c2c1cc1c([n+]2[Au-][P+](c2ccccc2)(c2ccccc2)c2ccccc2)C[C@@H]2C[C@H]1C2(C)C)C[C@@H]1C[C@H]3C1(C)C)c1cc2c([n+]([Au-][P+](c3ccccc3)(c3ccccc3)c3ccccc3)c1-4)C[C@@H]1C[C@H]2C1(C)C.O=S(=O)(O)C(F)(F)F.O=S(=O)(O)C(F)(F)F gave an IC50 of 20 ± 2 nM (Txnrd1 (Rattus norvegicus, UniProt O89049); enzyme activity, inhibitor).
The IC50 of O=C(Cc1ccccc1)N[C@H](C(=O)O)[C@@H]1N=C(C(=O)O)C(CS[C@H](Cc2ccccc2)C(=O)O)CS1 (stereo partly drawn) is reported as 590 ± 60 nM (Metallo-beta-lactamase type 2 (Serratia marcescens, UniProt P52699); enzyme activity, inhibitor; with: nitrocefin).
For CCCCCCCCCCCCCCCCCC(=O)NC[C@H]1CC[C@H](C(=O)N[C@@H](CCC(=O)NCCCOCCOCCOCCCNC(=O)COCC(=O)N[C@@H](Cc2ccc(O)cc2)C(=O)NC(C)(Cc2ccccc2)C(=O)N[C@@H](CC(C)C)C(=O)N[C@@H](CCCC)C(=O)N[C@@H](CCCNC(=N)N)C(=O)N2CCC[C@H]2C(=O)N[C@@H](CCCNC(=N)NC)C(=O)N[C@@H](CC(N)=O)C(N)=O)C(=O)O)CC1 (stereo partly drawn), the IC50 was 0.468 nM (Neuromedin-U receptor 1 (Mus musculus, UniProt O55040); ligand displacement, radioligand).
CC(C)CNc1ccc(C(=O)C=C(O)C(F)(F)C(F)(F)F)cn1 has an IC50 of 96 ± 15 nM (Formate-nitrite transporter; L-lactate transport, inhibitor, fluorescence; yeast; pH 6.8, with: L-lactate 1 mM).
CC(C)C[C@@H](N)C(=O)NCC(=O)N[C@H](C)C(=O)N[C@H](CO)C(=O)N[C@H](Cc1c[nH]c2ccccc12)C(=O)N[C@H](Cc1c[nH]cn1)C(=O)N[C@H](CCCNC(=N)N)C(=O)N1CCC[C@@H]1C(=O)N[C@H](CC(=O)O)C(=O)N[C@H](CCCCN)C(=O)N[C@H](CCCCN)C(=O)N[C@H](CCCNC(=N)N)C(=O)NCCCCCC(=O)N[C@@H](CCCCN)C(=O)N[C@@H](CCCNC(=N)N)C(=O)N[C@@H](CCCCN)C(=O)N[C@@H](CS)C(=O)N[C@H](C(=O)N[C@@H](CCCNC(=N)N)C(=O)N1CCC[C@H]1C(=O)N[C@@H](CC(N)=O)C(=O)N[C@@H](CC(N)=O)C(=O)N[C@@H](CC(N)=O)C(=O)N[C@H](C(N)=O)[C@@H](C)O)[C@@H](C)O has an IC50 of 48 nM (CXCR4; antagonist; concentration not given).
CSCC[C@H]1NC(=O)[C@H](Cc2ccccc2)NC(=O)[C@H](NC(=O)[C@@H](N)CCCCN)CSC(=O)[C@H](C(C)C)NC(=O)[C@H](Cc2ccccc2)NC1=O gave an IC50 of 1400 nM (Histidine kinase AgrC (Listeria monocytogenes, UniProt A8E0G3); agr signalling).
CNC(=S)NCCCC[C@H](NS(=O)(=O)c1ccc(C(=O)NCc2cn(CCCNc3ccc([N+](=O)[O-])c4nonc34)nn2)cc1)C(=O)N[C@@H](CCCNC(=N)N)C(=O)N[C@@H](CC1CCCCC1)C(=O)N[C@H](CCCCN)C(=O)N[C@@H](CC1CCCCC1)C(=O)N[C@H](CCCNC(=N)N)C(=O)N[C@@H](CC1CCCCC1)C(N)=O gave an IC50 of 960 nM (SIRT2; enzyme activity, inhibitor, fluorescence).
The IC50 of C#CCNC(=O)c1ccc(S(=O)(=O)N[C@@H](CCCCNC(=O)c2cncc(OS(=O)(=O)F)c2)C(=O)N[C@@H](CCCNC(=N)N)C(=O)NC2CCC2)cc1 is reported as > 200000 nM (SIRT5; inhibitor, fluorogenic; 0 h preincubation, non-tagged enzyme 150 nM, with: NAD+ 500 µM).
O=C(C=C(O)C(F)(F)c1ccccc1)c1cccnc1 gave an IC50 of 960 ± 132 nM (Formate-nitrite transporter; L-lactate transport, inhibitor, fluorescence; yeast; pH 6.8, with: L-lactate 1 mM).
O=C(CCc1ccc(Br)cc1)N[C@H]1CCOC1=O has an IC50 of 310 nM (lasR; reporter gene, antagonist; Escherichia coli, JLD271 with LasR plasmid; with: OdDHL 2 nM).
The IC50 of CC(C)C[C@@H](N)C(=O)NCC(=O)N[C@H](C)C(=O)N[C@H](CO)C(=O)N[C@H](Cc1c[nH]c2ccccc12)C(=O)N[C@H](Cc1c[nH]cn1)C(=O)N[C@H](CCCNC(=N)N)C(=O)N1CCC[C@@H]1C(=O)N[C@H](CC(=O)O)C(=O)N[C@H](CCCCN)C(=O)N[C@H](CS)C(=O)N[C@H](CS)C(=O)N[C@H](CC(C)C)C(=O)NCC(=O)N[C@H](Cc1ccc(O)cc1)C(=O)N[C@H](CCC(N)=O)C(=O)N[C@H](CCCCN)C(=O)N[C@H](CCCNC(=N)N)C(=O)N1CCC[C@@H]1C(=O)N[C@H](CC(C)C)C(=O)N1CCC[C@@H]1C(N)=O is reported as 255 nM (CXCR4; ligand displacement).
With O=C(C=C(O)C(F)(F)C(F)(F)F)c1ccc(NC(=O)c2ccccc2)nc1 the IC50 was 237 ± 9 nM (Formate-nitrite transporter; L-lactate transport, inhibitor, fluorescence; yeast; pH 6.8, with: L-lactate 1 mM).
